Measurements gathered from unrelated publications.
Values joined by “and” are separate records of one study, mostly repeats; a detail may differ. ± gives the spread as reported.
DRD4: D(4) dopamine receptor (DRD4, Homo sapiens, UniProt P21917)
TRPV1: Transient receptor potential cation channel subfamily V member 1 (TRPV1, Homo sapiens, UniProt Q8NER1)
UniProt Q8NER1, sequence (whole entry, looked up): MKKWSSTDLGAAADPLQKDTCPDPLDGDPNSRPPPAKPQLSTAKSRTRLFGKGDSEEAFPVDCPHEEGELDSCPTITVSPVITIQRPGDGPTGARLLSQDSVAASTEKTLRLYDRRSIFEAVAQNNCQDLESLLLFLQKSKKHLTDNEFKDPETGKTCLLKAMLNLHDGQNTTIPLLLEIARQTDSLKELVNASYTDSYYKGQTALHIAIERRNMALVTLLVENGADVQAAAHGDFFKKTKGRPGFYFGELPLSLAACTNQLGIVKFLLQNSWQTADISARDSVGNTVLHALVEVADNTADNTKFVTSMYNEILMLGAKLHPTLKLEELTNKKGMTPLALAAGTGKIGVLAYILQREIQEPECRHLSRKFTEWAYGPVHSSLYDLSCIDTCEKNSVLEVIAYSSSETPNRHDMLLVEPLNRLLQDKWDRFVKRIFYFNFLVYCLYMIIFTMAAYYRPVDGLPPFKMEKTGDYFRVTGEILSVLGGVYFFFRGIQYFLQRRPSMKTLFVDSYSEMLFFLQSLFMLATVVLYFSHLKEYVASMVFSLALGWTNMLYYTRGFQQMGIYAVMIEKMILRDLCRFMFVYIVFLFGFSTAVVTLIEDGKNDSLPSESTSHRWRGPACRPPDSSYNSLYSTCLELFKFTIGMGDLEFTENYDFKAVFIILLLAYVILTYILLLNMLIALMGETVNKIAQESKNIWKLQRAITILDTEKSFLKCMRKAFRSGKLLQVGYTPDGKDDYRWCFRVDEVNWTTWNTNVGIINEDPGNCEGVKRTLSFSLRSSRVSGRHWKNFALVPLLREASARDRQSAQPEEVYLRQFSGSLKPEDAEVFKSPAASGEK
Tumor necrosis factor receptor superfamily member 9/Nectin-4: Tumor necrosis factor receptor superfamily member 9/Nectin-4 (Homo sapiens, UniProt Q07011+Q96NY8)
UniProt Q07011, sequence (whole entry, looked up): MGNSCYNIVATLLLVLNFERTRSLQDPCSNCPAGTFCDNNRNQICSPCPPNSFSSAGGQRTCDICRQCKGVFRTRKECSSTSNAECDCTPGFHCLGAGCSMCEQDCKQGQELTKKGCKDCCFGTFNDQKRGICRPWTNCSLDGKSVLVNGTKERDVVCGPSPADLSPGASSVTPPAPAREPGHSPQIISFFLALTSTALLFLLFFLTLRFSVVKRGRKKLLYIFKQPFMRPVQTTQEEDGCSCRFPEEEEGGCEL
T1: ssDNA, aptamer; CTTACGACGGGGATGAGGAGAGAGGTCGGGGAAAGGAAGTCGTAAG
UniProt Q64663, sequence (whole entry, unmodified, looked up): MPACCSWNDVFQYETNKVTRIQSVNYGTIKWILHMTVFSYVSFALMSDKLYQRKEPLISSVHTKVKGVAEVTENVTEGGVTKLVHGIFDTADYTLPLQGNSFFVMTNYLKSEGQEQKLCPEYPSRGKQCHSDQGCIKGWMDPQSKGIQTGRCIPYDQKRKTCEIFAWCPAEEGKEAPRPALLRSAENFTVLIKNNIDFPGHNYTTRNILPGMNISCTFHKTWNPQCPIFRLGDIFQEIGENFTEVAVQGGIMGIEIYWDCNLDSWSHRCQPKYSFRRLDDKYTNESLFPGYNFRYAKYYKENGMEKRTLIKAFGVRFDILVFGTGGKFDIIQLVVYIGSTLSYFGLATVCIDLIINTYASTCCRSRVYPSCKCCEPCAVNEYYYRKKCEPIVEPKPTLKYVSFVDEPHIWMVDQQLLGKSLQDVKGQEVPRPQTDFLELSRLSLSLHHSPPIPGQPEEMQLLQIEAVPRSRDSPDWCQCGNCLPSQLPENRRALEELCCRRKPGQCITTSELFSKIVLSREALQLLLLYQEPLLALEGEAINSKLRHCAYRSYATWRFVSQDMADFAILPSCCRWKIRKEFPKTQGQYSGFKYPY
UniProt Q8IWT6, sequence (whole entry, unmodified, looked up): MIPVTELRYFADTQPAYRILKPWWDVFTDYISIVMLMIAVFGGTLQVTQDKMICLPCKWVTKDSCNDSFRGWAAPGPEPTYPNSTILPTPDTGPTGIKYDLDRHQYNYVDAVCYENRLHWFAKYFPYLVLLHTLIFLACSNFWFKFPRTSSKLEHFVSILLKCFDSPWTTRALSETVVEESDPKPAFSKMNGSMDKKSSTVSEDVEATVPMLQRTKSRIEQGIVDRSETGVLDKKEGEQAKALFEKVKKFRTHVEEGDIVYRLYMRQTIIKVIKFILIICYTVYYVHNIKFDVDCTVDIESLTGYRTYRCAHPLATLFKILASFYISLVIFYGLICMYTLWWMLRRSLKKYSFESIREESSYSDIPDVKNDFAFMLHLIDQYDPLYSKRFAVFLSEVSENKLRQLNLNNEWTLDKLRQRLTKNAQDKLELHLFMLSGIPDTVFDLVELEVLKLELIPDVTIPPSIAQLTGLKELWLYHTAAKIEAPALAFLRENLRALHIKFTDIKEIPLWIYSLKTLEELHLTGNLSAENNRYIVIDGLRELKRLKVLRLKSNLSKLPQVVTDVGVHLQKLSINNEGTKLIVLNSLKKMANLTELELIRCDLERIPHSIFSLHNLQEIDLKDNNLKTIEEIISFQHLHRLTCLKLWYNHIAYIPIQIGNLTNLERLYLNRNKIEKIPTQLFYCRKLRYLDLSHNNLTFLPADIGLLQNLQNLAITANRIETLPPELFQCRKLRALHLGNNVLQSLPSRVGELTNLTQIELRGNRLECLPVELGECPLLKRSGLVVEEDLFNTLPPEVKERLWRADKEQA
UniProt P31641, sequence (whole entry, unmodified, looked up): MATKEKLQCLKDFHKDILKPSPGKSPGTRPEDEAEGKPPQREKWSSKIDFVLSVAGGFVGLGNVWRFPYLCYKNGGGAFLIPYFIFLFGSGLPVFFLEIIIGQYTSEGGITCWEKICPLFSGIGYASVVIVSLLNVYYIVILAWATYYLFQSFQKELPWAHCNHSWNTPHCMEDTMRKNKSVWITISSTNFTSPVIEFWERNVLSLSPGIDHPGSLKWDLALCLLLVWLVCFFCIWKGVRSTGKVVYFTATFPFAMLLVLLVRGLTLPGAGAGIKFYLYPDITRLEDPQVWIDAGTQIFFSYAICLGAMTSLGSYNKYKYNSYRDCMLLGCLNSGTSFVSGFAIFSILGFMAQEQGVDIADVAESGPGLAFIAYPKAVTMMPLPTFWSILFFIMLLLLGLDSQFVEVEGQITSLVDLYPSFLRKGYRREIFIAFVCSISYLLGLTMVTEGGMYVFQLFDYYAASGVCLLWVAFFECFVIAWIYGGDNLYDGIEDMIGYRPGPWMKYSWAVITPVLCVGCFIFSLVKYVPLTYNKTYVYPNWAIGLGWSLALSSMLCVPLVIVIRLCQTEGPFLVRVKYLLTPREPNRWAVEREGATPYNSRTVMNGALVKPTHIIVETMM
UniProt P11388, sequence (whole entry, looked up): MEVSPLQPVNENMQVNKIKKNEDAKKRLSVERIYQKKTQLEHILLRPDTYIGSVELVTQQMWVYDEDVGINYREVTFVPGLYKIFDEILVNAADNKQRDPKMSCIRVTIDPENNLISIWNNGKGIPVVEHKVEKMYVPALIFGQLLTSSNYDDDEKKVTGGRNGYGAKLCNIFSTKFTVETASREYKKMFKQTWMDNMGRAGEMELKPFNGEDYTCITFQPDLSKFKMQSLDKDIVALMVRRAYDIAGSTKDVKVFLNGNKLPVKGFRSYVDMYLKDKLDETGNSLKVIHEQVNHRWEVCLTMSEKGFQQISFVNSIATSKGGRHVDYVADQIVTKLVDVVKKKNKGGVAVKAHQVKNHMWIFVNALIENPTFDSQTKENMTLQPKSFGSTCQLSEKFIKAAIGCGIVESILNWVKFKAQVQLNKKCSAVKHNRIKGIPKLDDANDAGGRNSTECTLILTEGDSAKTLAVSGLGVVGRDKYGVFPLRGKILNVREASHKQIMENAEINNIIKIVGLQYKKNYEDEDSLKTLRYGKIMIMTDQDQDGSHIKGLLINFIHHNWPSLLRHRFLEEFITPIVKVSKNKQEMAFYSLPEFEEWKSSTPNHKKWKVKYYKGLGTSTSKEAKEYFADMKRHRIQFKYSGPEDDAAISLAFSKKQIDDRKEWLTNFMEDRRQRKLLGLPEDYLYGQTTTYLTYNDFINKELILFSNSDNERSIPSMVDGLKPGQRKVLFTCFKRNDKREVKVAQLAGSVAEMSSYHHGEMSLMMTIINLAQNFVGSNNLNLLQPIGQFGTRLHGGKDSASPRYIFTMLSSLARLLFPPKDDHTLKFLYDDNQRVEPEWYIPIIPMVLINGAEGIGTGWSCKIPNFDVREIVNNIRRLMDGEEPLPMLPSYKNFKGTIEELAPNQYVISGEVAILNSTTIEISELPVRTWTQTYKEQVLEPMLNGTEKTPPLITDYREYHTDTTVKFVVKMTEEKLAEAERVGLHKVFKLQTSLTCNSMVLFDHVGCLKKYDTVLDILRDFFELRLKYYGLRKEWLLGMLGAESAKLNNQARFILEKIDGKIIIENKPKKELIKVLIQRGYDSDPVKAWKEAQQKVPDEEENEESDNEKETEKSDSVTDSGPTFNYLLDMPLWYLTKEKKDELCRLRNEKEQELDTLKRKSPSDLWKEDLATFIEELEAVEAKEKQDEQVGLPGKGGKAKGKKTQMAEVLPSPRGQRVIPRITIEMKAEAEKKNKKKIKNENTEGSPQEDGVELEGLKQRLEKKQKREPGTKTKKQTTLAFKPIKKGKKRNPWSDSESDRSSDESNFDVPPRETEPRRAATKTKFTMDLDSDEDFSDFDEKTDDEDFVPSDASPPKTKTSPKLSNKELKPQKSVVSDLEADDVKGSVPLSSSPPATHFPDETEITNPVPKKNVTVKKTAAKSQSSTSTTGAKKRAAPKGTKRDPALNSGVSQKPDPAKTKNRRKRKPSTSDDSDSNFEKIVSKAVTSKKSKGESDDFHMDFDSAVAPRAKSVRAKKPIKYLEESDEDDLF
UniProt P51575, sequence (whole entry, unmodified, looked up): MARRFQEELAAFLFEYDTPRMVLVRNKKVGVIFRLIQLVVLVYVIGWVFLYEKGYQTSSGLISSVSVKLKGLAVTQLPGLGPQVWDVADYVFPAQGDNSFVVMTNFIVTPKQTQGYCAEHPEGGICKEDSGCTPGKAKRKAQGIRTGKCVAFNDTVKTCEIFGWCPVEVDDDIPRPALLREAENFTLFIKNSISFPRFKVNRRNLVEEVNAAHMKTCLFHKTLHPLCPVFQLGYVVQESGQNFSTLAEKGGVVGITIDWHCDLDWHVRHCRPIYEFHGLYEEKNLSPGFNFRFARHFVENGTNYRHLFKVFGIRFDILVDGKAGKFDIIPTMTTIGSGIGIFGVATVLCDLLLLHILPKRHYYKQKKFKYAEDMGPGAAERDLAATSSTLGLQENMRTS

Structure (SMILES)	target	test	system	setting	how to read	endpoint	result
Nc1ncnc2c1ncn2[C@@H]1O[C@H](COP(=O)(O)OP(=O)(O)OP(=O)(O)O)[C@@H](O)[C@H]1O	P2X purinoceptor 2 (P2RX2, Homo sapiens, UniProt Q9UBL9, D148K)	ion current, agonist, two-electrode voltage clamp	Xenopus oocytes	concentration-response curve		Hill slope	1.04
Cc1ccc(OC[C@@H]2CN(CCN3CCc4ccccc43)CCO2)cn1	DRD4	radioligand binding		concentration not given, added: [3H]N-methylspiperone		inhibition	94.2%
CCCCCCCC(=O)c1c(O)cc(O)cc1CC(=O)OCC	Nuclear receptor subfamily 4 group A member 1 (NR4A1, Homo sapiens, UniProt P22736)	reporter gene, NBRE reporter full-length		10 µM	reference: vehicle	activation	0.91 fold
COCCNc1nc(Oc2cccc3[nH]c(=O)c(N)nc23)cc(-c2ccc(C(F)(F)F)cc2)n1	TRPV1	antagonist, automated patch clamp	HEK-293T expressing hTRPV1	1 µM, added: 100 nM capsaicin		reversal potential change	-16.1 ± 0.3 mV
O=C(Nc1cccc2c(=O)cc(-c3nnn[nH]3)oc12)c1ccc(OCCCCc2ccccc2)cc1	LRRC8A/LRRC8C (Homo sapiens, UniProt Q8IWT6+Q8TDW0, M48D/T48D)	ion current, whole-cell patch clamp	HCT LRRC8-/- cells	3 µM, -100 mV, T48D/M48D heteromers		inhibition	1.33% and 15.6% and 2.55%
COc1cc(CNC(=O)CCCC/C=C/C(C)C)ccc1O	TRPV1	channel activation, FLIPR calcium	HEK293T	0.00305 µM	higher = more activation	calcium response	-0.645 a.u. and 3.15 a.u. and 0.807 a.u. and -0.528 a.u.
Nc1nc2c(ncn2[C@@H]2O[C@@H]3COP(=O)(O)O[C@H]4[C@@H](O)[C@H](n5cnc6c(=O)[nH]c(N)nc65)O[C@@H]4COP(=O)(O)O[C@H]3[C@H]2O)c(=O)[nH]1	Cell cycle histidine kinase CckA, CA domain (Caulobacter vibrioides, UniProt Q9X688)	binding, ITC		added: ADP 5 mM		association constant	46500 ± 5790 M⁻¹
CCC1(O)CCCN(C(=O)c2ccc(-c3ccc(F)c(NC(=O)CCl)c3)cc2)C1 (stereo not shown)	DNA dC->dU-editing enzyme APOBEC-3A (Homo sapiens, UniProt P31941)	covalent adduct, intact protein MS		1 h, 10-fold excess, 250 µM		unmodified protein	0%
Nc1ncnc2c1ncn2[C@@H]1O[C@H](COP(=O)(O)OP(=O)(O)O)[C@@H](O)[C@H]1O	T1, ssDNA, aptamer	ITC				Kd	22.7 µM
O=c1nc(SCc2cc(F)cc(C(F)(F)F)c2)nc(SCc2ccc3nc(Cl)ccc3c2)[nH]1	DNA topoisomerase 2-alpha (TOP2A, Homo sapiens, UniProt P11388)	ATPase activity		125 µM, added: ATP 0.25 mM		ATP hydrolysis rate	0.249 µM/min and 1.78 µM/min
C#Cc1cccc(Oc2ccc(-c3nn([C@@H]4CCCN(C(=O)C=C)C4)c4ncnc(N)c34)cc2)c1	Mitogen-activated protein kinase kinase kinase 20 (MAP3K20, Homo sapiens, UniProt Q9NYL2)	ABPP-SILAC		1 µM, 1 h	reference: DMSO	SILAC ratio	20
Nc1ncnc2c1ncn2[C@@H]1O[C@H](CO[P@](=O)(O)O[P@](=O)(O)O[P@@](=O)(O)S)[C@@H](O)[C@H]1O	GUK1 (Homo sapiens, UniProt Q16774)	binding, isothermal titration calorimetry		molar ratio 1.319, fitted curve		ΔH	-0.803 kcal/mol
NS(=O)(=O)c1ccc(Nc2nc(-c3ccc(F)cc3)c3ccccc3n2)cc1	Protein polybromo-1, bromodomain 2 (PBRM1, Homo sapiens, UniProt Q86U86)	bromodomain binding, BROMOscan		1000 nM	reference: DMSO control	remaining binding	72%
N[C@@H](CC(=O)O)C(=O)O	Methyl-accepting chemotaxis protein, ligand-binding domain (Pectobacterium atrosepticum, UniProt Q6D6I9)	thermal shift		ligand-binding domain	reference: ligand-free protein	ΔTm	8.2 °C
NCCS(=O)(=O)O	Sodium- and chloride-dependent taurine transporter (SLC6A6, Homo sapiens, UniProt P31641, S402A)	binding, microscale thermophoresis		30.5 nM, room temperature, added: 50 nM labelled protein	higher = more binding	normalised MST signal	-0.00154
Nc1ccn([C@@H]2O[C@H](COP(=O)(O)OP(=O)(O)OP(=O)(O)O)[C@@H](O)[C@H]2O)c(=O)n1	DNA-directed RNA polymerase subunit beta' / DNA-directed RNA polymerase subunit beta (rpoC/rpoB, Escherichia coli, UniProt P0A8T7+P0A8V2)	RNA extension, denaturing gel	Escherichia coli, elongation complex, 6-MI template	5 µM, 10 min, 25 °C		incorporation efficiency	81%
CCn1c(-c2nc3cc(C(=O)N4CCC[C@@H](N)C4)cc(OC)c3n2C)cc2cccnc21	Protein-arginine deiminase type-1 (PADI1, Homo sapiens, UniProt Q9ULC6)	enzyme activity, mixed inhibitor		added: BAEE, 10 mM CaCl2		Ki'	3530 ± 1900 µM

Structure (SMILES)	target	test	system	setting	how to read	endpoint	result
Oc1ccc(/C=C/c2cc(O)cc(O)c2)cc1	O-methyltransferase (Sorghum bicolor, UniProt A0A1B6PFV1)			concentration not given, added: SAH+		ΔG of binding	-9.15 kcal/mol
O=C(O)c1ccc(Nc2ncc3c(n2)-c2ccc(Cl)cc2C(c2c(F)cccc2F)=NC3)cc1	Fer(h)	kinase activity		1 µM		remaining activity	57%
CCCC[C@@H]1NC(=O)[C@H](Cc2ccc(O)cc2)NC(=O)[C@@H]2CCCN2C(=O)[C@H](CC(=O)O)NC(=O)[C@H](C)NC(=O)[C@H](Cc2ccccc2)NC(=O)[C@@H]2CSCCC(=O)N3CN(CN(C3)C(=O)CCSC[C@@H](C(=O)N[C@@H](CNC(=O)CCc3cn(CCOCCOCCOCCOCCOCCOCCOCCOCCOCCOCCOCCOCCC(=O)NCCC(=O)N(C)CC(=O)N(C)CC(=O)N(C)CC(=O)N(C)CC(=O)N(C)CC(=O)N(C)CC(=O)N(C)CC(=O)N(C)CC(=O)N(C)CC(=O)N(C)CC(=O)NCCCC[C@@H]4NC(=O)[C@H](Cc5cccc6ccccc56)NC(=O)[C@@H]5CCCN5C(=O)[C@@H](NC(C)=O)CSCCC(=O)N5CN6CN(C5)C(=O)CCSC[C@H](NC4=O)C(=O)N[C@@H](CCSC)C(=O)N[C@@H](CCCCNC(=N)N)C(=O)N[C@@H](CC(=O)O)C(=O)N[C@@H](Cc4c[nH]c5ccccc45)C(=O)N[C@@H](CO)C(=O)N[C@@H]([C@@H](C)O)C(=O)N4CCC[C@H]4C(=O)N4C[C@H](O)C[C@H]4C(=O)N[C@@H](Cc4c[nH]c5ccccc45)C(=O)N[C@H](C(N)=O)CSCCC6=O)nn3)C(N)=O)NC1=O)C(=O)CCSC[C@H](NC(C)=O)C(=O)N[C@@H](CC(C)(C)C)C(=O)N1CCC[C@H]1C(=O)N[C@@H](CCC(=O)O)C(=O)N[C@H](C)C(=O)N1CCC[C@H]1C(=O)N[C@@H](Cc1ccc(O)cc1)C(=O)N2	Tumor necrosis factor receptor superfamily member 9/Nectin-4	reporter gene, agonist	HT-1376 coculture with reporter cells		reference: background	Emax	39 fold
N#Cc1ccn2c(-c3ccncc3)c(-c3ccc(F)cc3)nc2c1	Mitogen-activated protein kinase HOG1 (HOG1, Candida albicans, UniProt Q92207)	MIB/MS competition binding	Candida albicans cell lysate	1 µM	reference: DMSO, lower = stronger binding	log2 fold change	-0.634
CC(=O)N[C@H](C(=O)N1C[C@H](O)C[C@H]1C(=O)NCc1ccc(-c2scnc2C)cc1)C(C)(C)SCCCCCCNC(=O)C[C@@H]1N=C(c2ccc(Cl)cc2)c2c(sc(C)c2C)-n2c(C)nnc21	Bromodomain-containing protein 2, BD2 (BRD2, Homo sapiens, UniProt P25440)	binding, ITC		25 °C, compound in cell, protein in syringe		ΔH	-8.2 ± 0.1 kcal/mol
Cc1cc2c(cc1N1C(=O)c3cccc4c(CCCO)ccc(c34)C1=O)n(C)c(=O)n2C (racemic)	Bromodomain-containing protein 2, BD1 (BRD2, Homo sapiens, UniProt P25440)	binding, BROMOscan binding		100 nM		inhibition	75%
COc1cc(/C=C2\SC(=O)NC2=O)cc(F)c1OCCNc1nc2c(cnn2C2CCCC2)c(=O)[nH]1	High affinity 3',5'-cyclic-AMP phosphodiesterase 7A (PDE7A, Homo sapiens, UniProt Q13946)				reference: PDE7A over PDE9	selectivity ratio	85 fold
c1coc(-c2n[nH]cc2-c2ccnc3ccccc23)c1	Serine/threonine-protein kinase CST20 (CST20, Candida albicans, UniProt P0CY24)	kinase binding, MIB/MS competition	Candida albicans lysate	1 µM	reference: DMSO, negative = stronger binding	log2 fold change	-1.02
Nc1ncnc2c1ncn2[C@@H]1O[C@H](COP(=O)(O)CP(=O)(O)OP(=O)(O)O)[C@@H](O)[C@H]1O	P2X purinoceptor 1 (P2RX1, Homo sapiens, UniProt P51575, R292A)	calcium influx		3.16 nM	reference: ionomycin response	calcium influx	0% and 1.97%
C[C@H]1O[C@@H](O[C@H]2CC[C@@]3(C)[C@@H](CC[C@]4(C)[C@@H]3C=C[C@]35OC[C@@]6(CCC(C)(C)C[C@H]63)[C@@H](O)C[C@]54C)[C@]2(C)CO)[C@H](O)[C@@H](O[C@@H]2O[C@H](CO)[C@@H](O)[C@H](O)[C@H]2O)[C@H]1O	NAD-dependent protein deacetylase sirtuin-1 (SIRT1, Homo sapiens, UniProt Q96EB6)	binding, microscale thermophoresis		131 nM		MST normalised fluorescence	885 a.u.
O=C1c2ccccc2CCN1CCCCN1CCN(c2ccccn2)CC1	DRD4	radioligand binding		concentration not given, added: [3H]N-methylspiperone		inhibition	100%
Cc1ncsc1-c1ccc([C@H](CC(=O)NCCOCCOCCOCCOCCOCCC(=O)N2CCC(Nc3cc(C(=O)NC[C@H](O)CN4CCc5ccccc5C4)ncn3)CC2)NC(=O)[C@@H]2C[C@@H](O)CN2C(=O)[C@@H](NC(=O)C2(F)CC2)C(C)(C)C)cc1	Protein arginine N-methyltransferase 5 (PRMT5, Homo sapiens, UniProt O14744)	degrader, Western blot	MDA-MB-468	2 µM		time to degradation	6 h
CCCC[C@@H]1NC(=O)[C@H](Cc2ccc(O)cc2)NC(=O)[C@@H]2CCCN2C(=O)[C@H](CC(=O)O)NC(=O)[C@H](C)NC(=O)[C@H](Cc2ccccc2)NC(=O)[C@@H]2CSCCC(=O)N3CN(CN(C3)C(=O)CCSCCC(=O)N[C@@H](CC(C)(C)C)C(=O)N3CCC[C@H]3C(=O)N[C@@H](CCC(=O)O)C(=O)N[C@H](CCCCNC(=O)CCc3cn(CCOCCOCCOCCN(CCOCCOCCOCCC(=O)N[C@H]4CSCCC(=O)N5CN6CN(C5)C(=O)CCSC[C@H](NC(=O)[C@@H](CC(=O)O)NC(=O)[C@H](Cc5cccc7ccccc57)NC(=O)[C@@H]5CCCN5C4=O)C(=O)N[C@@H](CCSC)C(=O)N[C@@H](CCCCNC(=N)N)C(=O)N[C@@H](CC(=O)O)C(=O)N[C@@H](Cc4c[nH]c5ccccc45)C(=O)N[C@@H](CO)C(=O)N[C@@H]([C@@H](C)O)C(=O)N4CCC[C@H]4C(=O)N4C[C@H](O)C[C@H]4C(=O)N[C@@H](Cc4c[nH]c5ccccc45)C(=O)N[C@H](C(N)=O)CSCCC6=O)CCOCCOCCOCCn4cc(CCC(=O)NCCCC[C@H]5NC(=O)[C@H](CCC(=O)O)NC(=O)[C@@H]6CCCN6C(=O)[C@H](CC(C)(C)C)NC(=O)CCSCCC(=O)N6CN7CN(C6)C(=O)CCSC[C@H](NC(=O)[C@H](Cc6ccc(O)cc6)NC(=O)[C@@H]6CCCN6C5=O)C(=O)N[C@@H](Cc5ccccc5)C(=O)N[C@@H](C)C(=O)N[C@@H](CC(=O)O)C(=O)N5CCC[C@H]5C(=O)N[C@@H](Cc5ccc(O)cc5)C(=O)N[C@@H](CCCC)C(=O)NCCSCCC7=O)nn4)nn3)C(=O)N3CCC[C@H]3C(=O)N[C@@H](Cc3ccc(O)cc3)C(=O)N2)C(=O)CCSCCNC1=O	Tumor necrosis factor receptor superfamily member 9/Nectin-4	reporter gene, agonist	HT-1376 coculture with reporter cells		reference: background	Emax	71 fold
COc1cc(F)ccc1-c1ncnc(Nc2cccc(C[S@](C)(=N)=O)c2)n1	Macrophage-stimulating protein receptor (MST1R, Homo sapiens, UniProt Q04912)	kinase activity		10 µM, added: 10 µM ATP		remaining activity	79%
Nc1ncnc2c1ncn2[C@@H]1O[C@H](COP(=O)(O)OP(=O)(O)OP(=O)(O)O)[C@@H](O)[C@H]1O	P2X purinoceptor 7 (P2rx7, Rattus norvegicus, UniProt Q64663, I214A/R125A)	ion current, agonist, two-electrode voltage clamp	Xenopus laevis oocytes	33 µM	reference: highest concentration response	normalized current	0.233 and 0.219 and 0.192
[H]/N=C(/N)NCC(=O)O	Sodium- and chloride-dependent taurine transporter (SLC6A6, Homo sapiens, UniProt P31641, Y138A)	binding, microscale thermophoresis		125 µM, room temperature, added: 50 nM labelled protein	higher = more binding	normalised MST signal	-0.00664
Cc1cccc(NC(=O)Cn2cc(CO)c3ccccc32)c1	Sodium channel protein type 8 subunit alpha, C-terminal domain (SCN8A, Homo sapiens, UniProt Q9UQD0)	binder, SPR				kon	3530 ± 74 M⁻¹ s⁻¹

A few entries again:
Structure (SMILES)	target	test	system	setting	how to read	endpoint	result
CCCCCCCC(=O)c1c(O)cc(O)cc1CC(=O)OCC	Nuclear receptor subfamily 4 group A member 1 (NR4A1, Homo sapiens, UniProt P22736)	reporter gene, NBRE reporter full-length		10 µM	reference: vehicle	activation	0.91 fold
N#Cc1ccn2c(-c3ccncc3)c(-c3ccc(F)cc3)nc2c1	Mitogen-activated protein kinase HOG1 (HOG1, Candida albicans, UniProt Q92207)	MIB/MS competition binding	Candida albicans cell lysate	1 µM	reference: DMSO, lower = stronger binding	log2 fold change	-0.634
Cc1ccc(OC[C@@H]2CN(CCN3CCc4ccccc43)CCO2)cn1	DRD4	radioligand binding		concentration not given, added: [3H]N-methylspiperone		inhibition	94.2%
